Published values collected from several papers.
Every numbered part comes from another study and shows a few of its results, in no order.

Block 1 — technique: protein binding microarray; molecule type: double-stranded DNA, one strand shown; sample: in vitro; concentration: not given; reference: not given; direction: higher = stronger binding
Target: Histone acetyltransferase KAT6A, winged helix 1, GST fusion (KAT6A, Homo sapiens, UniProt Q92794, residues 1-85)
Notes: 8-mer, flanks averaged, mean of 2 arrays, mostly near background
Residues (chain): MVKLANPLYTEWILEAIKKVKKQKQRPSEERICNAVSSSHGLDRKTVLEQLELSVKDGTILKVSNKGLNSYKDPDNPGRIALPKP
Oligonucleotide	E-score
AAGGGCCT	-0.124
CCGGATAG	0.0882
CGCGCATC	0.425

Block 2 — technique: protein-binding microarray; molecule type: double-stranded DNA, one strand shown; sample: in vitro; concentration: not given; direction: higher = stronger binding
Target: Protein C-ets-1 (ETS1, Homo sapiens, UniProt P14921, residues 1-441, Y397A, full length assumed)
Sequence of UniProt P14921 (whole entry, unmodified, looked up): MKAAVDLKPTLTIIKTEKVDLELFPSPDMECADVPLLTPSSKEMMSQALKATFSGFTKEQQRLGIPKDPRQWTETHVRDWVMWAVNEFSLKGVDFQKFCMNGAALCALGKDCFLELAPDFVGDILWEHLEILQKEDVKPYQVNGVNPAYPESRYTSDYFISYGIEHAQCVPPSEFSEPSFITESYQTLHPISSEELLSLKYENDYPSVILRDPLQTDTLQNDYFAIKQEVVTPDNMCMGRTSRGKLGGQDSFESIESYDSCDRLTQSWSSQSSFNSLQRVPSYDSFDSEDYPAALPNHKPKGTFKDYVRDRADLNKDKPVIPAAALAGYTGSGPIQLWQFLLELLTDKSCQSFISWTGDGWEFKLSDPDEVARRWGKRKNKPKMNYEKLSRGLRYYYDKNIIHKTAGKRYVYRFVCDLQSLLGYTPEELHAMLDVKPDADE
Notes: k-mer, scored over probes, only values ≥0.25
Oligonucleotide	E-score
CCGCCCGC	0.296
AACCGGAA	0.327
CGCCAAAA	0.419
TGTATACA	0.278
GCAAACAA	0.269

Block 3 — technique: protein-binding microarray; molecule type: double-stranded DNA, one strand shown; sample: in vitro; concentration: 0.8 µM; notes: whole 60-bp probe, no competitor; direction: higher = stronger binding
Target: Centromere-binding protein 1, full length, N-terminal tag (CBF1, Saccharomyces cerevisiae, UniProt P17106, residues 1-351)
Sequence of UniProt P17106 (whole entry, looked up): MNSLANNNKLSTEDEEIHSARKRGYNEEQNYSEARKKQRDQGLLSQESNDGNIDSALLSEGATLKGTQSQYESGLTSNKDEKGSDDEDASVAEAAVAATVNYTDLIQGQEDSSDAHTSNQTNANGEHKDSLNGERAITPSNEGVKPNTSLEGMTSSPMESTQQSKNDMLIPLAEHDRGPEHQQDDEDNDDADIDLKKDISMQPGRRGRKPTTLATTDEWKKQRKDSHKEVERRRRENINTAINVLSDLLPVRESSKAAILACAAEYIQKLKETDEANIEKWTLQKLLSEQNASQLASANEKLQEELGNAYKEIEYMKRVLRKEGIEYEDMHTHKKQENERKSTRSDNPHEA
Oligonucleotide	fluorescence intensity [a.u.]
CTATGCGATAAATTTAACGTGCTTCTGATCAGGTTCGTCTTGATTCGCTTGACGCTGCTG	587
GAATGCATAAATATTCACATGGCGGAGATCATGTAGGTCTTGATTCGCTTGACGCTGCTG	674
CTAAGTTAGAACGATCACGTTGACTCTGAAATATTCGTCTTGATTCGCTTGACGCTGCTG	1710
GAAAAAACAGAAAACCACCAGAGAGAAGCACCGTAGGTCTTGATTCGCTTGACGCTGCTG	480
CTAAAACGAAGAAAGCACGTGAGGATTGAAGAATTCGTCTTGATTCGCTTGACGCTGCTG	5040
GAAGGGTGCGTAAGTATGGTGATGCATTTTGTTTAGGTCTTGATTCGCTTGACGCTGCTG	545
CTAAAAAAAAAGTGCGACATCACAATGAGACATTTCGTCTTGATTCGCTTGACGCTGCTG	506

Other studies, line by line
Molecule	target	assay	system	conditions	how to read	measurement	result
PhoQ, residues 284 288 289 292 302 303 AGCYAI	PhoP, residues 12 14 15 18 19 STHWV (Escherichia coli, UniProt P23836)	Sort-seq, refers to: YFP reporter	E. coli	PhoQ-PhoP variant library, together with: 10 µM Mg2+	reference: high Mg2+ state, higher = stronger signaling	fold induction	2.94

Repeated from above (block 3):
Oligonucleotide	fluorescence intensity [a.u.]
CTAAAAAAAAAGTGCGACATCACAATGAGACATTTCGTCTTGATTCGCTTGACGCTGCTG	506
